# Measurements of several laboratories.
# Parts stem from different laboratories: compare values within a part only.

# Block 1 — method: universal PBM; molecule type: double-stranded DNA, one strand shown; sample: in vitro; tested at: 600 nM; reading: higher = stronger binding
# Target: Sal-like protein 4, full length isoform A (SALL4, Homo sapiens, UniProt Q9UJQ4, residues 1-1053)
# UniProt Q9UJQ4, sequence (whole entry, looked up): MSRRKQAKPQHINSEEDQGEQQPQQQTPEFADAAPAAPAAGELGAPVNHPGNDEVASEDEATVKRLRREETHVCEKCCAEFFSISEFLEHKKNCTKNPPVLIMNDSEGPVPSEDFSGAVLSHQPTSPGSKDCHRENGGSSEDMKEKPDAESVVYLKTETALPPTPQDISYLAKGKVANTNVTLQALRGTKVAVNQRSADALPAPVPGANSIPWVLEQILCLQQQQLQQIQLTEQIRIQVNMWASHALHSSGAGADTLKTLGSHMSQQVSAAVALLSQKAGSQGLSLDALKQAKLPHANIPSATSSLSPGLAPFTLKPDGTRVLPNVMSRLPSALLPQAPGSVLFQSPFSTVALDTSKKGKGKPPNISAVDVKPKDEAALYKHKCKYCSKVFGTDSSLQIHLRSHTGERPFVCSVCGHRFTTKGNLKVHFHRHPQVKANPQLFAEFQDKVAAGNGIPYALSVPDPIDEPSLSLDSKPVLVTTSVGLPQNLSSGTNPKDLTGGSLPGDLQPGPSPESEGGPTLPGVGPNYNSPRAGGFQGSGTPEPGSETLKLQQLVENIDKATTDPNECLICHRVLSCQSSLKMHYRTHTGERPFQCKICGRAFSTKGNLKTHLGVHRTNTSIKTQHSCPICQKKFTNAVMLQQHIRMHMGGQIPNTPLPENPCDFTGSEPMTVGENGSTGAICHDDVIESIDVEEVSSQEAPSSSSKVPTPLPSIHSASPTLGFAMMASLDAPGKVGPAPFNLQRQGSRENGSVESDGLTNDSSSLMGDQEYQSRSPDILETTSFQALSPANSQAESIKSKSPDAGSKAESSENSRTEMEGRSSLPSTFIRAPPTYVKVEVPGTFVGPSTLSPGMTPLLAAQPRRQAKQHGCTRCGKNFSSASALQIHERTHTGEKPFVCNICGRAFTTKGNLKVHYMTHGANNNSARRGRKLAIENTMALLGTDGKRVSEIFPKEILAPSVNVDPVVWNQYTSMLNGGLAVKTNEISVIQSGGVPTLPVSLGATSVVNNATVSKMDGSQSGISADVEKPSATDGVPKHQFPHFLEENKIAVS
# Notes: 8-mer, flanks averaged, mean of replicates
Sequence,E-score
GCGTCTAC,-0.248
CATATTAA,0.417
CCCCTAGA,-0.0371
CCTCGCCC,-0.212
TCTGACCA,0.017
GCCCTCCC,-0.333
AGTTGTGA,0.209
GTTGCCAA,-0.0373
CCCTGGAC,-0.365
CCAAGGGG,-0.148
ATCCCAGA,-0.123
AGGAAATA,0.324
AGACAAGA,0.106
ACAACCAC,-0.0127
AACAGCAA,0.149
CAACTTGA,0.147
ATAAAGGA,0.155
ACATAGGA,0.0608
ATTTTGAC,0.24
CCTTGGAG,-0.0947

# Block 2 — method: RNA Bind-n-Seq; molecule type: RNA; sample: in vitro; tested at: 365 nM; relative to: no-protein control; reading: higher = stronger binding
# Target: RNA binding protein fox-1 homolog 2, RRM domain, GST-SBP tag (RBFOX2, Homo sapiens, UniProt O43251-10, residues 100-194)
# Notes: natural RNA segment, single round, ends assumed
# Constant ends, left off below: GGGAGUUCUACAGUCCGACGAUC … UGGAAUUCUCGGGUGCCAA
# Target sequence (chain): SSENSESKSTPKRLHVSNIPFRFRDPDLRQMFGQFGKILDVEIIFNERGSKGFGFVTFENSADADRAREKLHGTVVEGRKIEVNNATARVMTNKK
Sequence,RBNS enrichment (R)
UACCAGUCGUGAGUCUGCAGGCUCCAGUGUUCUGUAGUAGUGUUUAUGGGCCUUGGGAGUACUUCUCCCCUGCCCUGCCCCACUGUCCCCUUCCUGACAACUUGAGCCAG,0.331
GAAUUCAGCACCGCAAGGAAAUUAUGGGUAUGUGAGCCAUAAUAUGAUGGGCAGCAGGUGGCGCUGCCUUCCACCCAUGGUGAUGGAUGGUUUGGAAAGGGAAUGUUGGU,4.67
ACCCCCAAUCUUCUUCUCUAGGUCGCCAAUCCCACAGGCUGUACAGCUCAGUUCCCUAUGUUUAUGCUGUGUUGUUCCCACCUCAGUGCUGUCAGCCUUUGGGACAGUGG,1.2
CCAUGGAGAGGAGAGGCACUGCCGGAGCCCUUGCCAGAUCUCCCUCCCUCUCUCCGUGCAGUAGCUGUGUGUCCGAGGUCAGUGUGCGGAAUCACAGCCAAGGACGUGAA,0.627
UAGCACUGAGCGGUAAAGGGUCUCUUCAUCUCUGGACAUGAUGGGUGUUGUGUAUGACUCUGUUGCCUUUUUGUCUGGAAACUAAAGGCUGGGGGUGGCAAAAUCAAUGA,2.86
AAGGUUAGAGGUUUGUCAACAAAAAGACAUGGAAGGUUAGGUUUGUCAACACAAAGACAUGGAAGAUUAGAGGUUUGUCAACACAAAGACACAGGAAGAAUGGGCUGCAG,1.21
GCAGGAGCAGCAGAGCAGCAGCUAGAGACCCCUUUGGCCACACCUUCCAGGCACUGGCCUGAUGCCCCGCCCUGGUGCUCUCCCCAGGCUCCCUCCUCAGCCUCCUGCCC,0.331
GUAAAUGUGUUUGAUGACCAGACUCUUCAUACAGUCGGCUUGGGCCACUUUAAAGGACAAAAGCCAGAGCUCAGCUUUAUCCCUCUCCCAGUGCUGGGAGCCAAAAAACU,0.41
ACAUUAAGAAAAUUUGUAUGAAAUAAUUUAGUCAUCAUGAAAUAUUUAGUUGUCAUAUAAAAACCCACUGUUUGAGAAUGAUGCUACUCUGAUCUAAUGAAUGUGAACAU,0.811
AGGAAUUGGGCCACCUGUGGCAUCAAGACUGCAACUUGACAAUCACGGUUUGCUGAUCUCAAACGGGCACUUAAAGCCUGGUAUGGGUGUGUGAUUUAGUGACUGAGCCU,0.661
UUUACAUGUGACCUUCUUAUAGGUUAACUGAGUUUGUGGCCUGGGACACAUGUAAUGAAGGUCACAGUCCACAGGUGACAGAGAAAUCCAAACUGUUGAUUACAGGUGCA,4.12
GUGGAGUUGGGUUUGGAAGCUGGUGCCCAGUUGGUGUGGAGUGUGUAGUUUUGUUAUGAAAGUUCUCUACCACCUACCUGUGUGAGUGACACCAACAUCCAGAUGUCACA,0.928

# Block 3 — organism: Saccharomyces cerevisiae; effect on: binding; method: competitive growth deep sequencing; molecule type: peptide; strain: cyclin E1-Cln2 fusion strain; notes: peptide tiling library; reading: direction not given
Molecule,enrichment score
RTEALEQGGLPKKLIF,1.57
NSMKELNFSHLPSNSV,0.349
QNPCGSKACRRLFGPV,0.787
VKRLNFRSEEME,-0.638
RQVRRDLFAF,-1.29
VLPGGVPSPGASLTSM,0.223
NEGVSNAVRRSLYIRD,-0.639
ATNSSHTDAHEILVSD,0.586
YLYLLLTQSLWCRV,-0.399

# Block 4 — method: protein binding microarray; molecule type: double-stranded DNA, one strand shown; sample: in vitro; tested at: not given; relative to: not given; reading: higher = stronger binding
# Target: Histone acetyltransferase KAT6A, both winged helices, GST fusion (KAT6A, Homo sapiens, UniProt Q92794, residues 1-181)
# Notes: 8-mer, flanks averaged, mean of 2 arrays, mostly near background
# Construct (chain): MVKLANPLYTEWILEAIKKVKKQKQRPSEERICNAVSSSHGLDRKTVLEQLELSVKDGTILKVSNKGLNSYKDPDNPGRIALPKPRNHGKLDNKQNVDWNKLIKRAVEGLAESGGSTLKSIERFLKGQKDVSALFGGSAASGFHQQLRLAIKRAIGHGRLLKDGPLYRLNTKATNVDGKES
Sequence,E-score
CCGATTAG,-0.00771
CGGGTATC,0.197
AACAAGAA,-0.156
AAAATGAA,-0.0589
CGGCAATA,0.22
AATACCTG,-0.203
TCTTTTCA,0.0218
AAACGAAT,-0.184
GGCCGATA,0.228
AAGAATTC,-0.0634
AGAGGGCA,-0.186
AAAGTTAC,-0.0779
CTTCTTGA,-0.0968
CGTTGACC,0.043
CGGGGAAG,0.186
ATGTCAAA,0.00085

# Some of these lines once more (block 3):
Molecule,enrichment score
RTEALEQGGLPKKLIF,1.57
VKRLNFRSEEME,-0.638
NEGVSNAVRRSLYIRD,-0.639
YLYLLLTQSLWCRV,-0.399
QNPCGSKACRRLFGPV,0.787
RQVRRDLFAF,-1.29
VLPGGVPSPGASLTSM,0.223
ATNSSHTDAHEILVSD,0.586
